# Results of several laboratories.
# Parts stem from different laboratories: compare values within a part only.

# Sample 1 — method: RNA Bind-n-Seq; form: RNA; sample: in vitro; tested at: 200 nM; notes: whole 134-nt RNA, ends assumed; together with: 150 mM KCl; reference: input library; reading: higher = stronger binding
# Target: Fragile X messenger ribonucleoprotein 1, C-terminal low-complexity region (Fmr1, Mus musculus, UniProt P35922)
Strand,log2 enrichment
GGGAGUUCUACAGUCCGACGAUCUCAAGUCCUGUGCUACACAUCGUAUGUACCGAAUCGGGUGGGUGGGAAAAAGGGAAAGUAUUAUGUUACGCCGUUCGGAUCUGCACUUCCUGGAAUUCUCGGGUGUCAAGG,1.08
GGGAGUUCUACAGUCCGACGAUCCCUCAAGUCCUGUGCUACACAUCGUAUGUACCGAAUCGGGAGGAGGGGAGGGGAAAGUAUUAUGUUACGCCGUUCGGAUCUGCACUUCCAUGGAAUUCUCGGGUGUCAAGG,1.35
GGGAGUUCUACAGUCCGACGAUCUCCUGUGCUACACAUCGUAUGUACCGAAUCGGGAAAGGGUUUUUUUGGGAAAAAAAGGGAAAGUAUUAUGUUACGCCGUUCGGAUCUGCAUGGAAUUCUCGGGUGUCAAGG,-0.32
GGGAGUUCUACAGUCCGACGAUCUGGCCCUGGUGGCAUGUGGGGAGGAAGAGGUGGCCUCAUGGAUCGUGGUGGUCCCGGUGGAAUGUUCAGAGGUGGCCGUGGUGGAGACAGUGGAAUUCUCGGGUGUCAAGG,0.127
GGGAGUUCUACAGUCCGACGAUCGCAGGAAGUAAAAACAAAUGGAAAUGCUUCGGAUAGUGGCAGGGGUGGGGGUUGCUAAGGAAAGGGUGGGAUGGGAGUGGGUAAAGAAAAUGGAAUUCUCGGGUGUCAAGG,0.0594
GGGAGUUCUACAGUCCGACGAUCUCAUGUAUAGACAACGCCAUUAUUGACGAGAUCACUCCCAAGCGGAUUGGAGAUUGUCCCAAUAUUUAGACCUAUAGCAAGGCCUUGGGAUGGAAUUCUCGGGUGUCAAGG,0.385
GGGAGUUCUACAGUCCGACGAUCUCCUGUGCUACACAUCGUAUGUACCGAAUCGGGUUUUUGGGUUUUUUUGGGAAAAAGGGAAAGUAUUAUGUUACGCCGUUCGGAUCUGCAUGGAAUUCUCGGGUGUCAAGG,-0.1
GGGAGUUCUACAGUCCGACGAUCCACAGACAACACGCACCCACACAGACACAGAGGGAAGGGGUUGGGAUGGGGACAGAGUGCACAGCAGGGCGGGGUAGGACCCCAGCCCCUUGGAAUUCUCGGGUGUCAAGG,1.13
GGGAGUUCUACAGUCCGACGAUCUGGGAGGUGGAUUUUGUUUAUUUUUUUAGCUCAUUUCCAGGGGUGUGAAUUUUUUUUUAAUAUGUGUCAUGAAUAAAGUUGUUUUUGAAAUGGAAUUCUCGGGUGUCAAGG,0.579
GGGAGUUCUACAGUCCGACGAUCUGGGAGGUGGAUUUUGUUUAUUUUUUUAGCUCAUUUCCAGGGGUGGGAAUUUUUUUUUAAUAUGUGUCAUGAAUAGAGUUGUUUUUGAAAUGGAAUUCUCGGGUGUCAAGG,0.269

# Sample 2 — method: protein-binding microarray; form: double-stranded DNA, one strand shown; sample: in vitro; tested at: 250 nM; notes: 60-bp whole probe; together with: salmon DNA 0.4 mg/ml; reference: random background probes; reading: higher = stronger binding; shared flanks, not repeated: GCCTAGCAC … GTCTTGATTCGCTTGACGCTGCTG
# Target: Interferon regulatory factor 5, full length, phosphomimetic (IRF5, Homo sapiens, UniProt Q13568-2, residues 1-514, K96S/S451D/S453D/S456D/S462D)
Strand,log fluorescence [z-score]
CACGGTATCGGTATCGGGACGTGCTAG,6.09
TCATCTCCATTTTTCTAACTGTGCTAG,0.916
TTAGAACTGGGGATTGGATTAGTGCTA,0.104
TTTGATTTCAGTTTCGATTAGTGCTAG,10.4
TCCTATATCTGAACCGCAGAGTGCTAG,0.414
GACGGTATCGGCCTCGGGACGTGCTAG,1.83
TCAAATTTCCCTCTCCCACTGTGCTAG,0.716
TTAGGACAGGACACTGGGTTAGTGCTA,-0.303
CACTCTGTCCCTCTGTGACAGTGCTAG,-0.048
TTAGATTTCGGGTATCGATAAGTGCTA,7.57
CTCTACCTCGTCATAGTAACGTGCTAG,-0.00974
GACGGTATCGGTCTCGAGACGTGCTAG,5.32
TCAACTCTCTTGTCTGGAACTGTGCTA,0.369
TTAGGACTGGGGACTCGGTTAGTGCTA,-0.372
GACGGACTGGTTTTCGGGACGTGCTAG,1.06
TTAGATTTCCTTCTCCTTTAGTGCTAG,0.906
GACGGACTGGGGGATCGGGACGTGCTA,0.0457
TTAGGACTGGACTATCGATTAGTGCTA,5.01
GCAAGAGGAAAGGAACATCAGTGCTAG,0.177
GCCGGTATCCTTCTCCTGACGTGCTAG,0.314

# Sample 3 — method: competition protein-binding microarray; form: double-stranded DNA, one strand shown; sample: in vitro; tested at: 2 µM; together with: Cbf1 competitor, 0.05 µM; reading: higher = stronger binding
# Target: Phosphate system positive regulatory protein PHO4, full length, GST-tagged (PHO4, Saccharomyces cerevisiae, UniProt P07270, residues 1-312)
# Notes: whole 60-bp probe, lowest competitor level
# Construct (chain): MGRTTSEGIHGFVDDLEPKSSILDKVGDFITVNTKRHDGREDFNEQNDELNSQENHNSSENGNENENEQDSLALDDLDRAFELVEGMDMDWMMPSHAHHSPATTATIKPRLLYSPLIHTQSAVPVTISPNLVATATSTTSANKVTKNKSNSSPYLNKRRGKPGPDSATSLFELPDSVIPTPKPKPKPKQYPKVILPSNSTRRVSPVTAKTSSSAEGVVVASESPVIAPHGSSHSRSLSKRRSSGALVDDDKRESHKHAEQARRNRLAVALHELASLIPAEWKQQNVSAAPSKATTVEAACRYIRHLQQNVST
Strand,fluorescence intensity
GTCTTGTCTCATTGTCCCGTGGGTGTCCCCACTTCAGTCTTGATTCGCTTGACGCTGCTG,9590 a.u.
CACAGCTCCTGCTGACATGTGCCACTCCTGGAATGCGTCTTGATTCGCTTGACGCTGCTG,11000 a.u.
CAGCCACTGGTGCTAAACGTGCTAAATTCAGAAAGAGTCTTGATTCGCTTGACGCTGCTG,12400 a.u.
AAAGCGGTAATTTTTCACGTGGAATCAAATATCTATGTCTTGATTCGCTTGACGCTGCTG,12900 a.u.
AAAGTAAAATCCCAACACGTGATGGTGTTCGTCTGAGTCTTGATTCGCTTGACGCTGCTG,15500 a.u.
TGCGCAACAACTTGTACAGTGGGTGTATGTCTAGAAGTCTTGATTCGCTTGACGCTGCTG,4490 a.u.
TATCCTAAATGCCATCACGATGATAAATCCTCCGCCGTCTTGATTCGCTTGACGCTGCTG,6530 a.u.
AAATTACTAAGTTTTCACGTGAACTACCCCGTATGAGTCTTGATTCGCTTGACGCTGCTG,9790 a.u.
GGACGAGAAATACACAGATTCAGTAAGATTTGTGAGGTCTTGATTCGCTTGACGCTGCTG,3980 a.u.
TTGAGGATCATCCAACACGTGCGATAACGTATCGACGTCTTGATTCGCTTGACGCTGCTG,17000 a.u.
TGCGCAACAACTTTTCACGTGCGATTATGTCTAGAAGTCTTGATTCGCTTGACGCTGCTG,14000 a.u.
CTGGCGTACGACATGAACGTGGTGAGCTCTCTTGTGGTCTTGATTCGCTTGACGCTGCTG,10600 a.u.
AAAGCGGTAATTTGTCACCTAACTTCACATATCTATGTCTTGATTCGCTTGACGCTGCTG,3360 a.u.
CTTTCCCGATCTTGTCACAACACTTTAGCACATTTGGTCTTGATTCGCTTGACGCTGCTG,4600 a.u.
TGTTGCATACGTAAACATGTGTAGATTATTCTAAATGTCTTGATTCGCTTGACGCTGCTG,8790 a.u.
ATGAAGTGAAATCGGCACGTGGAGGTCAGAAGAGTCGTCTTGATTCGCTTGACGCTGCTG,19400 a.u.
CTTCCAAATGATGTTTTCGTGCGATAACTTAAGTATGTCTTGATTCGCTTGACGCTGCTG,4770 a.u.
CTTTCCCGATCTTGGCCCGTGGGTGTAGCACATTTGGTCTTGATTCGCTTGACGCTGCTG,9040 a.u.
GACAATTTGATTTATGACCTGATTCACAGAATTCGCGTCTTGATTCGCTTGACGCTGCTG,3050 a.u.
CTTTCCCGATCTTGTCACCTCACTTTAGCACATTTGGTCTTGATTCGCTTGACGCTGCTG,4120 a.u.
CCGCCGACACATATACACGTGTATATGTATGCCTATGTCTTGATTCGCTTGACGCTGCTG,15900 a.u.
AAAGCGGTAATTTGTGCCGTGGGTGCAGATATCTATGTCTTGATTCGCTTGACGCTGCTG,4840 a.u.
AAAGCGGTAATTTGTCACATCACTTCACATATCTATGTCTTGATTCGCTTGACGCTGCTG,3700 a.u.
ACAACAACATTATACAACGTGGTAACCAAATTTTTCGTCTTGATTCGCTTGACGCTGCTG,12200 a.u.

# Sample 4 — method: RNA Bind-n-Seq; form: RNA; sample: in vitro; tested at: not given; reference: input RNA pool; reading: higher = stronger binding
# Target: RING finger protein unkempt homolog, zinc fingers 1-6, GST-SBP tag (UNK, Homo sapiens, UniProt Q9C0B0, residues 30-357)
# Chain of UniProt Q9C0B0 (30-357, looked up): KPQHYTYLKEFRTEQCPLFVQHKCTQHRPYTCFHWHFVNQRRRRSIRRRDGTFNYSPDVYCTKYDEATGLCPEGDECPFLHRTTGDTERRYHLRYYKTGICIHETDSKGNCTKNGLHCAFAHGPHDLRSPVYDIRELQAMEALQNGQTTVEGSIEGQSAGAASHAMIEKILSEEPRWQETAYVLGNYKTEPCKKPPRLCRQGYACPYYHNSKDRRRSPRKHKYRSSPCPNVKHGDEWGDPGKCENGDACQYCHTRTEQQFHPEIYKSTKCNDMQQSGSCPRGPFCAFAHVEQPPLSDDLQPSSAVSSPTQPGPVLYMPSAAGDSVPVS
# Notes: RNA with constant flanks, human and mouse sites, ends assumed
Strand,bound/input enrichment [ratio]
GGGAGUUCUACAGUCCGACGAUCCAGACACUCAAGCCUUGCACAGACACACAUGGCUUUAUUUGUCCUUUCAGCUGAGAGCACCUUCAUUGAUCUCUAAGGAGCAGGUUCUGUCCUAACUUGCCUGUUACAUCAUUCCCUUGUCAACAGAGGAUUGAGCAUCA,0.0792
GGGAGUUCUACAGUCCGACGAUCGACAGCAGCCACCAUGUCGGAUACGCGGCGGCGAGUGAAGGUCUAUACCCUGAACGAAGACCGGCAAUGGGACGACCGAGGCACCGGGCACGUCUCCUCCACUUACGUGGAGGAGCUCAACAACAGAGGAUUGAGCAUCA,0.211
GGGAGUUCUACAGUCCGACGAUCGACCAGAGGAAGGGAGAGGGUCUUGUCUCCUGUGUCAUAUUGGUCCUUUGAUACUGUGUUGGUUUGGUGUGUGUGUGUGGGUAUGUACUUCCUGUCUGGAUUGCAGAUCUUCAUCUCCCUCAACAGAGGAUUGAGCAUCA,0.33
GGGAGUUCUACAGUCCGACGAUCCUUCCAAAAGAAGAAAACCCCACAAGUUUUCCAUUUUCUUAAAGUAGGAAAAAAUGAACAGUAAUAAUUAUGAUGAAGAUGAUAGUAGUGCUAUGGGAUGUGUGGACUGUUUAGUGUGUUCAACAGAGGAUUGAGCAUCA,2.31
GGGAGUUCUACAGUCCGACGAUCGUGGCCUUCCAGUUCACAGUCACCCCUGAUGGCAUCGAUCUCCGCCUGAGCCAUGAAGCCCUCAAACAGAUCUGCCUGUCAGGGCUGCACUCCUGGAAGAAGAAGUUCAUCCGAUUCAAGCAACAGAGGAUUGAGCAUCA,0.0871
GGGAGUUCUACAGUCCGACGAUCAUGCUUUCAGUAGCAGGAAUGGCAUUGUUUAAAAAGCUGAUGGCAGGGUAAGCAUUUGGGUUAGUGUUUUAUUAACAUAUUUGUAAGUACUUGUUCAUUGUGGAAAUGUGUCCUUGACUACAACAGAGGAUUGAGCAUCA,0.236
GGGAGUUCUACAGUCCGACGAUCUACUUGGCAUAUCGAAAUUUUAUGAUUGACACAUACCGUCUAAACCCUCAAGAAUAUUUAACCAGCACUGCUUGCCGGCGAAACCUGACUGGAGAUGUGUGUGCUGUGAUGAGGGUUCAUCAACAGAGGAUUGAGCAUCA,0.269
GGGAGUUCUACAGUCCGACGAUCUUGGUGUCCAGAGCUCACCAGCUGGUGAUGGAGGGAUAUAACUGGUGCCAUGACCGGAACGUAGUAACAAUUUUCAGUGCUCCAAACUAUUGCUAUCGUUGUGGUAACCAAGCUGCAAUCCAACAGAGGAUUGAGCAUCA,0.164

# Excerpt of the above (sample 3):
Strand,fluorescence intensity
GTCTTGTCTCATTGTCCCGTGGGTGTCCCCACTTCAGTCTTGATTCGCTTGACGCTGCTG,9590 a.u.
CACAGCTCCTGCTGACATGTGCCACTCCTGGAATGCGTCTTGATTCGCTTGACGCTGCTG,11000 a.u.
CAGCCACTGGTGCTAAACGTGCTAAATTCAGAAAGAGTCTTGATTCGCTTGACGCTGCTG,12400 a.u.
AAAGCGGTAATTTTTCACGTGGAATCAAATATCTATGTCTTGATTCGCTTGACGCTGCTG,12900 a.u.
AAAGTAAAATCCCAACACGTGATGGTGTTCGTCTGAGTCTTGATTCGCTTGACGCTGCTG,15500 a.u.
TGCGCAACAACTTGTACAGTGGGTGTATGTCTAGAAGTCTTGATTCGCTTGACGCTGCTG,4490 a.u.
TATCCTAAATGCCATCACGATGATAAATCCTCCGCCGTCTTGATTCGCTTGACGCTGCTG,6530 a.u.
